Measured values from different studies.
Compare with care: the assays were run in different laboratories.
Cell line: HCT-15

Compound | test | test system | setting | scale | quantity | value
O=C(Nc1nnc2n3c(Cc4ccccc4)n[nH]c3nc(-c3ccc(Cl)cc3)c1-2)c1ccccc1 | SRB |  | 10 µM, NCI60 single-dose screen, colon cancer | baseline: untreated | cell growth | 102%
S=C([S][Au-][P+](CCCCCC[P+]([Au-][S]C(=S)n1cccn1)(c1ccccc1)c1ccccc1)(c1ccccc1)c1ccccc1)n1cccn1 | cell growth, NCI-60 screen |  | colon cancer |  | log10 TGI | > -4
COc1ccc(OC)c(-c2nc3ccc(-c4nc5ccc(N6CCN(C)CC6)cc5[nH]4)cc3[nH]2)c1 | SRB |  | 10 µM, 48 h |  | growth percent | 76%
Cc1cc(=O)[nH]c(=O)n1Cc1cn(-c2c3ccccc3nc3ccccc23)nn1 | NCI60 single-dose screen |  | 10 µM |  | growth percentage | 79.2%
O=C(Nc1nnc2n3c(=S)[nH][nH]c3nc(-c3ccc(Cl)cc3)c1-2)c1ccccc1 | SRB |  | 10 µM, NCI60 single-dose screen, colon cancer | baseline: untreated | cell growth | 95.7%
CCn1cc(-c2cc(Cn3ccnc3)cc3c2CCN([C@H](c2cc(OC)ccn2)C2CC2)C3=O)c(C(F)(F)F)n1 | cell growth, inhibitor |  | 120 h |  | EC50 | 7.69 µM
CCCN1CCN(c2ccc3[nH]c(-c4ccc5[nH]c(-c6ccc(C(F)(F)F)cc6)nc5c4)nc3c2)CC1 | SRB |  | 10 µM, 48 h |  | growth percent | -55.1%
CCOC(=O)CSc1nc(-c2ccc(Cl)cc2)c2c(NC(=O)c3ccccc3)nnc-2[nH]1 | SRB |  | 10 µM, NCI60 single-dose screen, colon cancer | baseline: untreated | cell growth | 89.2%
O=c1ccn(Cc2cn(-c3cc4ccccc4oc3=O)nn2)c(=O)[nH]1 | NCI60 single-dose screen |  | 10 µM |  | growth percentage | 109%
CN1CCN(c2ccc3[nH]c(-c4ccc5[nH]c(-c6ccc(C(F)(F)F)cc6)nc5c4)nc3c2)CC1 | SRB |  | 10 µM, 48 h |  | growth percent | 80.4%
COc1cnc2cccc(N3CCc4c(cc(Cn5ccnc5C)cc4-c4cn(C)nc4C(F)(F)F)C3=O)c2c1 | cell growth, inhibitor |  | 120 h |  | EC50 | 5.88 µM
Cc1cc(-c2ccccc2)n(-c2nc(-c3ccc(Cl)cc3)c3c(NC(=O)c4ccccc4)nnc-3[nH]2)n1 | SRB |  | 10 µM, NCI60 single-dose screen, colon cancer | baseline: untreated | cell growth | 89.8%
CCCCN1CCN(c2ccc3[nH]c(-c4ccc5[nH]c(-c6cc(OC)c(OC)c(OC)c6)nc5c4)nc3c2)CC1 | SRB |  | 10 µM, 48 h |  | growth percent | 99.2%
O=C1NC(=NCc2cccs2)S/C1=C\c1ccc2ncccc2c1 | MTS | colon cancer |  |  | IC50 | 3.84 µM
Cn1cncc1C1=CN(c2ncnc3[nH]cnc23)CCS1 |  |  | colon cancer |  | GI50 | 10 µM
C#C[C@@]1(O)[C@@H](CO)O[C@@H](n2cc(Br)c3c(N)ncnc32)[C@@H]1O | SRB |  | NCI-60 screen |  | TGI | > 100 µM
CCCN1CCN(c2ccc3[nH]c(-c4ccc5[nH]c(-c6cc(OC)c(OC)c(OC)c6)nc5c4)nc3c2)CC1 | SRB |  | 10 µM, 48 h |  | growth percent | 99.5%
CCCC(CCC)C(=O)OCc1cn(-c2c3ccccc3nc3ccccc23)nn1 | NCI60 single-dose screen |  | 10 µM |  | growth percentage | 91.8%
Cc1cc(=O)[nH]n1-c1nc(-c2ccc(Cl)cc2)c2c(NC(=O)c3ccccc3)nnc-2[nH]1 | SRB |  | 10 µM, NCI60 single-dose screen, colon cancer | baseline: untreated | cell growth | 81.2%
CCCCN1CCN(c2ccc3[nH]c(-c4ccc5[nH]c(-c6ccc(OCC)c(OCC)c6)nc5c4)nc3c2)CC1 | SRB |  | 10 µM, 48 h |  | growth percent | -30.4%
NNc1nc(-c2ccc(Cl)cc2)c2c(NC(=O)c3ccccc3)nnc-2[nH]1 | SRB |  | 10 µM, NCI60 single-dose screen, colon cancer | baseline: untreated | cell growth | 102%
C#C[C@@]1(O)[C@@H](CO)O[C@@H](n2cc(I)c3c(N)ncnc32)[C@@H]1O | SRB |  | NCI-60 screen |  | TGI | > 100 µM
